Measurements of several laboratories.
Numbered parts are unrelated; each lists some results of a single study. Substitutions count along the parent as printed.

Study 1
Target: Sal-like protein 4, full length isoform A (SALL4, Homo sapiens, UniProt Q9UJQ4, residues 1-1053)
Chain of UniProt Q9UJQ4 (whole entry, looked up): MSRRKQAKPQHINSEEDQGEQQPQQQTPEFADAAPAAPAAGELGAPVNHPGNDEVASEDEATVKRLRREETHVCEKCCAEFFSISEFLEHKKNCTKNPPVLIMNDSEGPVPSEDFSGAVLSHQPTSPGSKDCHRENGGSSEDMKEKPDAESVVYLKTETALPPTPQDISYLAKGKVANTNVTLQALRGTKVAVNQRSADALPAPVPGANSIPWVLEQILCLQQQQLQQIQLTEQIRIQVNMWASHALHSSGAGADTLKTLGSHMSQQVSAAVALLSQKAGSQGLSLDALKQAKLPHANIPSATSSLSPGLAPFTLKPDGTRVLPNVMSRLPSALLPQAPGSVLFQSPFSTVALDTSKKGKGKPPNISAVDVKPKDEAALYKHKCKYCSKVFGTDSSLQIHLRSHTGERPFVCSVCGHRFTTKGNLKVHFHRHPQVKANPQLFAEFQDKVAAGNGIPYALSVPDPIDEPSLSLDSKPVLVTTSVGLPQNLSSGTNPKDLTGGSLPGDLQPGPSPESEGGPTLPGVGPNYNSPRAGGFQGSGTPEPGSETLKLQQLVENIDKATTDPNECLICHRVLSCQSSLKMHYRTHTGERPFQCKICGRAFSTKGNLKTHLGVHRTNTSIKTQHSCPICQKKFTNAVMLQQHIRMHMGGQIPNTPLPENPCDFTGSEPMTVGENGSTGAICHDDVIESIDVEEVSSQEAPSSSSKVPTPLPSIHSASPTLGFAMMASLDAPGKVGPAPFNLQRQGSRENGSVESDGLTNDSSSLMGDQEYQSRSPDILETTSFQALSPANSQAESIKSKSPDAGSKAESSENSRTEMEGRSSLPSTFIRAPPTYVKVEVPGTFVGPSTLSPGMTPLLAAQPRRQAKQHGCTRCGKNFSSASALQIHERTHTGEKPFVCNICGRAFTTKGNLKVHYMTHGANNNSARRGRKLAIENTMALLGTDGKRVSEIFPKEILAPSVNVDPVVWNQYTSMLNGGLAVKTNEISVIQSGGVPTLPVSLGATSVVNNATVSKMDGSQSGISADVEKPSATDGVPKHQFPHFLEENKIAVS
Technique: universal PBM
Molecule type: double-stranded DNA, one strand shown
Medium: in vitro
Tested at: 600 nM
Setting: 8-mer, flanks averaged, mean of replicates
Direction: higher = stronger binding
Sequence	E-score
ACCTCTTA	0.0678
ACAAAGTG	-0.0507
AGTTACTA	0.168
AGCGACCA	-0.0875
TGGGAAAA	0.0981
AAAACCGT	0.104

Study 2
Target: CCNA1, cyclin fold, Cln2 fusion (human)
Technique: yeast growth competition, sequencing
Medium: yeast
Setting: weak parent motif
Reference: not given
Direction: higher = stronger binding
Starting sequence: PKN2 docking peptide (human); VSAVRKLDFSDTM; partner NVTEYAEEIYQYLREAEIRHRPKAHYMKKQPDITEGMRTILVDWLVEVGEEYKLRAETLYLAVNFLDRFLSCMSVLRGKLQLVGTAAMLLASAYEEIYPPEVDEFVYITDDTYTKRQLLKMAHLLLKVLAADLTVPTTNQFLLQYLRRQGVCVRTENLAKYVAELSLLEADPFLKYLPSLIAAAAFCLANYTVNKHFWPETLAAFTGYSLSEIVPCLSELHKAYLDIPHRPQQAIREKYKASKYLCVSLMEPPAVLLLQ
Substitution	normalised enrichment score
D8N	1.06
S10P	0.567
V4Y	0.9

Study 3
Target: Interferon regulatory factor 7, full length, phosphomimetic (IRF7, Homo sapiens, UniProt Q92985, residues 1-503, S471D/S472D/S475D/S476D/S477D/S483D/S484D/S487D)
Chain of UniProt Q92985 (whole entry, unmodified, looked up): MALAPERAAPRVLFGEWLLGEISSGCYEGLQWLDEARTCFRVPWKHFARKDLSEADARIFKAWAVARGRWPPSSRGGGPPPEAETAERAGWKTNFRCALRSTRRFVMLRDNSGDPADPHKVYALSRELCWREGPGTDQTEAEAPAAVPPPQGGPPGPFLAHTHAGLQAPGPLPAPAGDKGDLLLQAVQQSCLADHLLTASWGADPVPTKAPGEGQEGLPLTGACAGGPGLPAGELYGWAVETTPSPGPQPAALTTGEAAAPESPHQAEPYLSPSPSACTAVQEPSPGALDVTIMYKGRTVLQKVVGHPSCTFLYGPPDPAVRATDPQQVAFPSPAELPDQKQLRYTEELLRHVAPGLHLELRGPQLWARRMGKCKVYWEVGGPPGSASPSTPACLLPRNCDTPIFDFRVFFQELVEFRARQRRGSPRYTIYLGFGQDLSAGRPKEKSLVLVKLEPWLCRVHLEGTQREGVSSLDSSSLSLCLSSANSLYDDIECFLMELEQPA
Technique: protein-binding microarray
Molecule type: double-stranded DNA, one strand shown
Medium: in vitro
Tested at: 2200 nM top
Setting: 60-bp whole probe
Together with: salmon DNA 0.4 mg/ml
Reference: random background probes
Direction: higher = stronger binding
Sequence	fitted relative affinity [z-score]
GCCTAGCACGAGGGACTGCTTATCCTGACGTGCTAGGTCTTGATTCGCTTGACGCTGCTG	-0.0937
GCCTAGCACGACGGTATCGAGTATCGGGACGTGCTAGTCTTGATTCGCTTGACGCTGCTG	0.0538
GCCTAGCACTAAGATATCGGGTATCGATTAGTGCTAGTCTTGATTCGCTTGACGCTGCTG	0.0553
GCCTAGCACTTAGGTTTCCTTTCCCTTTAGTGCTAGGTCTTGATTCGCTTGACGCTGCTG	5.11

Other studies, line by line
Molecule	target	test	system	conditions	scale	measurement	result
PhoQ, residues 284 288 289 292 302 303 AEGLLW	PhoP, residues 12 14 15 18 19 NMSFL (Escherichia coli, UniProt P23836)	Sort-seq, refers to: YFP reporter	E. coli	PhoQ-PhoP variant library, together with: 10 µM Mg2+	reference: high Mg2+ state, higher = stronger signaling	fold induction	11.4
